# Results pooled from the literature.
# Parts stem from different laboratories: compare values within a part only.

# Set 1 — technique: competition protein-binding microarray; form: double-stranded DNA, one strand shown; sample: in vitro; concentration: 2 µM; with: Cbf1 competitor, 0.05 µM; direction: higher = stronger binding; constant ends, left off below: … GTCTTGATTCGCTTGACGCTGCTG
# Target: Phosphate system positive regulatory protein PHO4, full length, GST-tagged (PHO4, Saccharomyces cerevisiae, UniProt P07270, residues 1-312)
# Notes: whole 60-bp probe, lowest competitor level
# Target sequence (chain): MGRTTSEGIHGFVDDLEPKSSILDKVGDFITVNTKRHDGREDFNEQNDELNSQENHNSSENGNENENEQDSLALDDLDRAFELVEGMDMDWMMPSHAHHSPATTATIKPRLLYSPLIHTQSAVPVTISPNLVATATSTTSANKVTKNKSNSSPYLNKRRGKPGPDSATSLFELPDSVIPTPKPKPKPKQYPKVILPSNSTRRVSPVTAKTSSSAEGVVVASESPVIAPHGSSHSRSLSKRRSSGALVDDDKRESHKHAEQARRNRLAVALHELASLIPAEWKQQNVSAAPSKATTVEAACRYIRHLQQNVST
Sequence,fluorescence intensity
TCAAAAAGGGACAATCACCTGGATGCATAAGGAGGA,4020 a.u.
CATACCCAACCTTGCTACGTGGGTGAAGATATTTGT,7930 a.u.
AAATTACTAAGTTGTGAAGTGGGTGACGCCGTATGA,3830 a.u.
GCATTTGTTGGCCATCACGTGAGCCGGGATCTTAAG,12100 a.u.
TGCTTATGGAGGTCCCACGTGCTTTTATCCGACAGC,18400 a.u.
TATTTTACTATCTTACACGTGTTGGTAACATAAACG,19200 a.u.
CGGGGTTAAGTTTGTCACGCTACTTGCTTGCAGCAG,4740 a.u.
AACATCTGCGGACAGCACGTGCGGATTAATTCTCAA,20000 a.u.
ACCAATGGATGTTAGCACGTGTTTCAACTCAGCGGC,16900 a.u.
CTAGGGCACCTCCGTCACCTGGCTTTTCTTCAACTT,3450 a.u.
AAAGCGGTAATTTGCCATGTGGGTGCAGATATCTAT,11500 a.u.
AGGGGCCGTCCACCAAACGTGACTCGACGAGTTGAC,9080 a.u.
GTATAATCTCTGAGGTGCGTGGTGAGGGACTGCTTA,9450 a.u.
CTTCTGTAAATTTTTCACGTGGGATGACGCGCCCCG,15400 a.u.
GTAACAGTATACGATCATGTGATATTACGTACATAA,6770 a.u.
ATTATGGTAGAGACCCTCGTGAATACTGCATCTTGT,7140 a.u.
GGGAATGTAGCGGAGCATGTGATGGAAGAGCTTCGG,8550 a.u.
GGCCGGGGCATGTTTCACGGGAAGTTCTGTGGCAGG,5310 a.u.
AAAGCGGTAATTTGATCCGTGGGTGCAGATATCTAT,5140 a.u.
TTTTATGCGATATTACATGTGTCAATAGCAAAAGGG,7470 a.u.
CGGGGTTAAGTTTGGTAAGTGGGTGGCTTGCAGCAG,4480 a.u.
AAATTACTAAGTTTTCACGTGCTTTACCCCGTATGA,14500 a.u.
AAATTACTAAGTTGAGGAGTGGGTGACGCCGTATGA,4620 a.u.
AAGGAAACTATAAAGCACGCAATTCCCTATTTGGTT,6680 a.u.

# Set 2 — technique: protein-binding microarray; form: double-stranded DNA, one strand shown; sample: in vitro; concentration: not given; direction: higher = stronger binding
# Target: Max-binding protein MNT, bHLH-zipper, MAX partner unstated (MNT, Homo sapiens, UniProt Q99583, residues 220-300)
# Notes: k-mer, scored over probes, only values ≥0.25
# Construct (chain): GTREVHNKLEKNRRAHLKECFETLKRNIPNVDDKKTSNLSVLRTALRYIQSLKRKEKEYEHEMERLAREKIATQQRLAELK
Sequence,E-score
CAGTCACA,0.256
CACGGGAG,0.284
AGGTGCAT,0.29
CATGCGAC,0.405
CGCGTGTC,0.455
ACACGTGA,0.494
CATGGGAA,0.277
GCGTGCAC,0.422
CGCGGGGC,0.269
ACACATGA,0.359
GCCACCCC,0.301
CCGAGGAA,0.255
GTCGTGCA,0.26
CAACGAGG,0.277
ACACACGC,0.383
AGGGCATG,0.323
CGTGATAG,0.3
ACGTGGTA,0.459
CGTGCGTC,0.41
GCGGCCAC,0.269
ACCCGCAT,0.279
CACGCGCG,0.422
CACGCGTC,0.436
CCACACCA,0.284
CTGCATGC,0.35

# Set 3 — technique: EMSA with sequencing; form: double-stranded DNA, one strand shown; sample: in vitro; concentration: 10 and 20 nM; baseline: negative control set to 0; direction: higher = stronger binding
# Target: Hepatocyte nuclear factor 3-alpha (Foxa1, Mus musculus, UniProt P35582, residues 1-468, full length assumed)
# Notes: whole designed probe, mean of two concentrations, ends assumed
# Constant ends, left off below: GTGAGCGGTGCCCATTGATGGGGAAC … TTTCACTGGGATCGTGGGGAC
# Residues (chain): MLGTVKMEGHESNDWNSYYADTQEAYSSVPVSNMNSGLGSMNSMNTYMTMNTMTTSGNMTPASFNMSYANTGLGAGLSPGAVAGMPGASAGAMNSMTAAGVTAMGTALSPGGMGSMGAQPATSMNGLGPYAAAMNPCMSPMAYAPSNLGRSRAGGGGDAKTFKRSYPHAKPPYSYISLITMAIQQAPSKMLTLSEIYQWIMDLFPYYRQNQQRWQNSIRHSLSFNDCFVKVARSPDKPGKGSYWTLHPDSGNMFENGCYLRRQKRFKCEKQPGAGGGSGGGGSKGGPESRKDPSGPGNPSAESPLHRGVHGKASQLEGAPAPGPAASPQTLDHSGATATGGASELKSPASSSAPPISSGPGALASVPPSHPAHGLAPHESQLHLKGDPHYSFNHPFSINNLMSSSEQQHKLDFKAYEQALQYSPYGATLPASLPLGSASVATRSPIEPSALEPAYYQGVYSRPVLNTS
Sequence,normalised bound fraction [ratio]
CTTGATAAGATTGAGCTTCCAGCAGAATGTAAATGCATCTGCTAACAGCAACCAGGCTTTGTCCCAAAACAGTAGTGAATCAGAATCTGCACAGTAATTTTTGCAGTTAATTTCCTCTCCTGTACTTATGACTCACAGGCCTTTCTTTACGTTCACAGTTTCATAGAAATTGGCAAATACTTCTTGACACTGA,-0.0236
TTTGGATGTTGTCAGTGGGCAGAGATCAGGTCATGTATGTTTACACAGATGGAACAAAGGATTTTTACCCCTTCAGCCAGATCTGGGACTCAATGTAAACAGCAAGATAACAACACAGGAAGGGTTGCAAACATTGTGCCTAGCACAGGGATGACAGCAGGGCGAATCCTGTAATGTCAAATGTCAGTCAAAT,0.467
ATCTTCCCCCTCTTCCTTGCCCCACCAGCTCACCTTCCCGGGTTATTTGCAGATAGGAAAATAAAATGCAGCAGCATTCGTTAACCCTCTTCTGGCGCAAACTGCTGTTTGCTCTGGATGAATCATGGTCCTTTGGCGACGCCAGGCTCCGGGAGAGCAAAGCACCGTGTCAGGGCCATGATCCGGGGTGGCC,0.145
ATCTTCCCCCTCTTCCTTGCCCCACCAGCTCACCTTCCCGGGTTATTTGCAGATAGGAAAATAAATAAAGCCGGCATTCGTTAACCCTCTTCACGCGCATACTGCTGTTTGCTCTGCATGAATCATGGTCCTTACGCGAGGCGTGGCTCCGGGAGAGCAAAGCACCGTGTCAGGCGCATGATCCGGGCTCGCC,0.35
GGATTAAGTGGGCAGAAATTTTTTAGGAAGAAGTGTAGAAAAAATTCTGAGGCTTTGTCTTTCCAACTAAGATGACTAAAGGGATAATTTCTAAGTAATCTGGGATGCAAGGAACAATTAATTTATTTTTAACCAGAATAGTGATTTAAGTCTAACACGTTCTTGAATAACAATTTTCAAACTCCAGGAAAAC,-0.0736
GGGTCCCGGGCGGCGGCAGGAATGCAGGAATGCGCACAGGCTGTGGGCGGCCAGGAGGGAGTCCCGGCGCCTGCCGGCGGAAGTGCCAGTCTTTGTGTACCCTGTCCAACACCTCCCCCCGCCAGCGCGGAAGGCCGGGCTACCTGCGCGCCTGGCAGCGCCTGGCAGCCGGCTGGGTGGGGCGCAGGGGAGC,0.0187
TCGGCCAGCCTGGCTTCTGCGCCCCGCCAGGAGGTCGCGGAGCGGAGCGCGGCCAGGAAGTGAGCTGAGAGTGACAGCTCCCCCCACGCTGTTTGTTTATTCTCTCCACACACTGGCTCTTCTTATGACTCATTCTCTTTCGGGAGGAGGGGAGAAAGGAGCGGGAGGGCGGGCGGGCAGGGGAGAGGCAGGC,0.322
TCCACTGGGATAAATTTATTTCATAAATGTCATTTTCTAAAGATAACTTCTTGGTCTCATACTTGGTCTCCAAATCTAAAATAAAACAAGAAAGCAAACACATGCTGTTTTCTTTTACTAAAAGAAGCAACATTTCTAATGTAGAAATAAAAGACAACAAAAGTAATCCTTAACCAAAACTCTAAAATATTGT,0.124

# Set 4 — technique: RNA Bind-n-Seq; form: RNA; sample: in vitro; concentration: 365 nM; baseline: no-protein control; direction: higher = stronger binding
# Target: RNA binding protein fox-1 homolog 2, RRM domain, GST-SBP tag (RBFOX2, Homo sapiens, UniProt O43251-10, residues 100-194)
# Notes: natural RNA segment, single round, ends assumed
# Constant ends, left off below: GGGAGUUCUACAGUCCGACGAUC … UGGAAUUCUCGGGUGCCAA
# Residues (chain): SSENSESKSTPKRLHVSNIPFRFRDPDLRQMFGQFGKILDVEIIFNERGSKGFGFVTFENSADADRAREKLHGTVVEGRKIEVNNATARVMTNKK
Sequence,RBNS enrichment (R)
GGGAAAGUAUUUUCAAUAUUUAAAAAAAUUAAGCUGAAGAAAAACUGAUCUUUGAUCCUCCUGUGAAGAUGGACUUGCCUGGCCUUAGUCAUGUGGAAAUGGUGUACCCG,0.762
UGAACAGGGCUGUUAAAGGUCCAUGCUCAAAUACAAGGGAGACAACAGAUAGGACAGGACAGGGCUCUGGGUGCUGUCCAGGGACUAAGGAAUACAGCUAAAUAAACCAA,0.421
CCAGCUCAGCUGCUAGGAAGACUUACUUGUCAUGAUUUAUAUAAUAAAAUUAAGGACACUGAAAAUUCUUAUGCUUGAUGAAAAACUUAAGGCUAGCCUAGAAGGGCCAA,0.325
UAAUCCCCUGGGUAUUACAUAUUCUGCAAGCCCUGUUAGUGGGGAGAUGGUAGUGGCAAUAGCAGCGAUAGUUGCGUCAGUGCUAACUGCUGCUGCUGCCCGUUCUGUUG,0.242
UGGAUGGGUGUCGACCUUGCAGCAGAGAAGGCGAUAAACAAGCUGAUGAGGAUAUCCAAGGAACCCAAAACCUGCUAACAUCGGUUGAAUCUGAAACGGCAGCUUCUGAG,0.576
UACUUAAAUACACACUGCGAAGAGUGAAAAGCUUGGAAAAGCAGAGUUGGGAGGACCCCGAGGAAAGGCAUUUGGGGCUGUGUAGAGAGGCUUGGACUGUGUGAGAACUG,0.977
UUUAAAUGCAGUGCCUAGAGAGAGAGUAUUGUCUCUUCCCCAACACUAACCCCACUCCCAUGAAGAAUUGCCUGGAAAGAUGUUUUCAAGGAAUUUGAACCAUAAAACAC,0.408
UCCUAUUGCUUCCUUGCGCAACUUCUCAAAACGAUGAAAGUCAGAAGGCUGUCAAACUCAAAUAUCUUUGCAAACAGUUUGAAUACUGUGAAUUCAUUACGAAGAAUGUU,0.452
GAAGAGUAGUGCAAAUUUACAGAGCACUGUCAAAGACUGACAGAAAAAAAAAAGAUCUGCUCUGUAGAAAGAAUUGUCUGCCAUUACAGGGUCAAGAAAAUGAAUGCGCC,2.4
UAAUAUACAGAGCAUUUUGACUUCUAAAUAGUUAGAUCCAGAGAUGAAGUGCACUGUUCUCUCUUCAUUACGGUCCUGUUUAAGAGCCCAGCUAGUCUAUCUGAGCUCUC,0.473
AAGUUGCCAAUUUGCUAUAAAUCCCUUUUGCCAUCAGUCUGCUUACAGUGAUAUAUAUAGUGUUCUUAAAACGAUGUGUCUUGCUGCAGAAAUACUGAAAAAAUGCUGGU,0.426
UGAUGAUAUGUUAGUUUUGUUGUUCUUUGGGGUUUUAUUCUUCCAGGUAUGUUAUGCACUACAGCCUGAUCUUUUCAGUCUAAGACAGCAUGGCUUCACUUUCCUGUGUU,0.6

# Excerpt of the above (set 2):
Sequence,E-score
GTCGTGCA,0.26
CAACGAGG,0.277
ACACACGC,0.383
AGGGCATG,0.323
CGTGATAG,0.3
ACGTGGTA,0.459
CGTGCGTC,0.41
GCGGCCAC,0.269
ACCCGCAT,0.279
